# Experimental data gathered from unrelated publications.
# Numbered parts are unrelated; each lists some results of a single study. Substitutions count along the parent as printed.

# Block 1 — technique: protein binding microarray; form: double-stranded DNA, one strand shown; matrix: in vitro; concentration: not given; relative to: not given; direction: higher = stronger binding
# Target: Histone acetyltransferase KAT6A, winged helix 1, GST fusion (KAT6A, Homo sapiens, UniProt Q92794, residues 1-85)
# Notes: 8-mer, flanks averaged, mean of 2 arrays, mostly near background
# Residues (chain): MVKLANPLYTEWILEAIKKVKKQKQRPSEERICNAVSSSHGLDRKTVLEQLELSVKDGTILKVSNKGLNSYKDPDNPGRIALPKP
Sequence,E-score
AACCGAGA,-0.0762
GGCCTCGA,-0.0709
ACGGCATG,0.344
GCACCGAC,0.162

# Block 2 — technique: universal PBM; form: double-stranded DNA, one strand shown; matrix: in vitro; concentration: not given; direction: higher = stronger binding
# Target: Sal-like protein 4, full length isoform B (SALL4, Homo sapiens, UniProt Q9UJQ4-2, residues 1-616)
# Notes: 8-mer, flanks averaged, mean of replicates
Sequence,E-score
CCAGGTCC,-0.314
GGTTCCAA,-0.138
AGTTCGCA,-0.126

# Block 3 — target: CCNB2, cyclin fold, Cln2 fusion (human); technique: yeast growth competition, sequencing; matrix: yeast; notes: weak parent motif; relative to: not given; direction: higher = stronger binding
# Starting sequence: PKN2 docking peptide (human); VSAVRKLDFSDTM; partner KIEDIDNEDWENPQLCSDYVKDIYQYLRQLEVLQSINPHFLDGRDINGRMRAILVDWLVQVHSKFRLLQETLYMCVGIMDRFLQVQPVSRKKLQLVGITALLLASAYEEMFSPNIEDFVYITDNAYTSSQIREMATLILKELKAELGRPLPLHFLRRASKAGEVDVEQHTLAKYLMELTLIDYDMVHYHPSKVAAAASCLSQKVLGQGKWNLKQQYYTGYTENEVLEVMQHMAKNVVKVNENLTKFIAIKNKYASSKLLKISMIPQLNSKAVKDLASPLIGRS
Substitution,normalised enrichment score
VSAVRKLDFKDTM [S10K],-0.23
VSAVRKWDFSDTM [L7W],-0.13
VSAVRHLDFSDTM [K6H],0.306
VSAVRELDFSDTM [K6E],-0.14

# Other studies, line by line
Substance,target,test,system,conditions,how to read,measurement,result
"PhoQ, residues 284 288 289 292 302 303 AAQSYM","PhoP, residues 12 14 15 18 19 GQAIL (Escherichia coli, UniProt P23836)","Sort-seq, measured: YFP reporter",E. coli,"PhoQ-PhoP variant library, with: 10 µM Mg2+","relative to: high Mg2+ state, higher = stronger signaling",fold induction,10.9
